Assay results of several laboratories.
Numbered parts are unrelated; each lists some results of a single study.
UniProt Q13237, sequence (whole entry, looked up): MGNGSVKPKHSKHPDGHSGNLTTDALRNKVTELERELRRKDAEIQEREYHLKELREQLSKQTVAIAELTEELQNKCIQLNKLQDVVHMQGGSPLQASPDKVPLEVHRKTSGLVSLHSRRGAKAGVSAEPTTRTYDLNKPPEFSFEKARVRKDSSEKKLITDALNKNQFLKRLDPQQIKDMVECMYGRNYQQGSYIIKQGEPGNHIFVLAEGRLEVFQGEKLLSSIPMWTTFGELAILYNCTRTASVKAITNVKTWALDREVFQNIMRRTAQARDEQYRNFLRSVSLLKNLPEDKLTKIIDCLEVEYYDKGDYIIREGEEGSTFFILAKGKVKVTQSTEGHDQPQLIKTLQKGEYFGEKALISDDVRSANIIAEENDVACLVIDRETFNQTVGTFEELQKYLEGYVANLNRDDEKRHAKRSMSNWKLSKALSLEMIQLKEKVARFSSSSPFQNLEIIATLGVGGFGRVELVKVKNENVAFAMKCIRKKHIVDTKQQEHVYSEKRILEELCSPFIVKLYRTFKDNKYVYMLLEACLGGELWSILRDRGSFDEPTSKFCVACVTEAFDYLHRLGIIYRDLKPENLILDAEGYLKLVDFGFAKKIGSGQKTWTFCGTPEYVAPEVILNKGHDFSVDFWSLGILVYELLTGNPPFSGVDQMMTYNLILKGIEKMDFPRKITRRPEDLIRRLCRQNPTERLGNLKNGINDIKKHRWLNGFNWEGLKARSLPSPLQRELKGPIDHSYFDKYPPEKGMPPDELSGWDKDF
UniProt Q86Y07, sequence (whole entry, looked up): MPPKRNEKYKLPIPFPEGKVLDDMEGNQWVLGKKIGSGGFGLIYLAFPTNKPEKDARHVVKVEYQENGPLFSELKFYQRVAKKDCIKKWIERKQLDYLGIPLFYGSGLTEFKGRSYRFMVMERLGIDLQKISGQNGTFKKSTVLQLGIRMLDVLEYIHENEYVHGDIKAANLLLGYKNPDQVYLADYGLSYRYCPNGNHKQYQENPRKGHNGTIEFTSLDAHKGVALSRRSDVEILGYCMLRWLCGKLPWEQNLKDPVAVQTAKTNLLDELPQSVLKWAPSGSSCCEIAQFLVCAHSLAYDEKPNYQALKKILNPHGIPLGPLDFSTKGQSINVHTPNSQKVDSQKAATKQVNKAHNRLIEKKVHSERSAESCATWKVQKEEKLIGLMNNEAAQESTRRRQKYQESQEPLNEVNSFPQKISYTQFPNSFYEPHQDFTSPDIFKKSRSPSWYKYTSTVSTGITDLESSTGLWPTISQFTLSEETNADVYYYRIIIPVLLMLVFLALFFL
UniProt P42680, sequence (whole entry, looked up): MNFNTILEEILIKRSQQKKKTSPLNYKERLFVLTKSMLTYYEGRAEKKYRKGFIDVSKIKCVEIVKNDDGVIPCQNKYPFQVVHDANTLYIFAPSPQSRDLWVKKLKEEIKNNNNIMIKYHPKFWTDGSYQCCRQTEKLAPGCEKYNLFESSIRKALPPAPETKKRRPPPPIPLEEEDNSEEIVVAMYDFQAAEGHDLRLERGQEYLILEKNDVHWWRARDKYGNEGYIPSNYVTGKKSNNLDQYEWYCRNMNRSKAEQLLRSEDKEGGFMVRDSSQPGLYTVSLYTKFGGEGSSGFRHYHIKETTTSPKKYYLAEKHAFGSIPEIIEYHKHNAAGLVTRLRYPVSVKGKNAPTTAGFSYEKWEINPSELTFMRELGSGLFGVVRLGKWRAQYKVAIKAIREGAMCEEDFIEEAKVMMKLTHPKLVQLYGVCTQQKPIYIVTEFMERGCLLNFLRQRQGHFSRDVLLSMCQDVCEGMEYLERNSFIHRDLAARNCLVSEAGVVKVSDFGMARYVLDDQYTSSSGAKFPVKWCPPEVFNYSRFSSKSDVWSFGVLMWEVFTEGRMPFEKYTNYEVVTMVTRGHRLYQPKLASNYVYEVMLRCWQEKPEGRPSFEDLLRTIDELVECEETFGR
UniProt Q8N568, sequence (whole entry, looked up): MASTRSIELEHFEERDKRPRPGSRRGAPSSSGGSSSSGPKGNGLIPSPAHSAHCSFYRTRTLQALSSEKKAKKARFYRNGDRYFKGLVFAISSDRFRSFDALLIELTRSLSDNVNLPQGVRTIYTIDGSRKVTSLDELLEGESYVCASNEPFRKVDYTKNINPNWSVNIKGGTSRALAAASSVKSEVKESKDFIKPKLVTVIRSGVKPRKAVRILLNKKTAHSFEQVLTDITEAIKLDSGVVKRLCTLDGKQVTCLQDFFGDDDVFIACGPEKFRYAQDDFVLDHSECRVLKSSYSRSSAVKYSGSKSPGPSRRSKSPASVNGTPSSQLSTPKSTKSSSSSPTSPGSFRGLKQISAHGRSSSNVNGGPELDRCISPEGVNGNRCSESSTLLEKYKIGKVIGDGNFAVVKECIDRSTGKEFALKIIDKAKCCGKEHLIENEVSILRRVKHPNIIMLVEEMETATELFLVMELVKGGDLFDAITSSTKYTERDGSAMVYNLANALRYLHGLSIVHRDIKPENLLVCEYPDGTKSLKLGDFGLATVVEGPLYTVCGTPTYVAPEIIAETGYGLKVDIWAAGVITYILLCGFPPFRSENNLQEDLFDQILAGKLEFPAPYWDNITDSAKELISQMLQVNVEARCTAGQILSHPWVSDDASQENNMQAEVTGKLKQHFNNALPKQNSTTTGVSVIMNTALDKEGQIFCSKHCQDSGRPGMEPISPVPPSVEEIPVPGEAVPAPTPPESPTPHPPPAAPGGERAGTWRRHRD
UniProt P49760, sequence (whole entry, looked up): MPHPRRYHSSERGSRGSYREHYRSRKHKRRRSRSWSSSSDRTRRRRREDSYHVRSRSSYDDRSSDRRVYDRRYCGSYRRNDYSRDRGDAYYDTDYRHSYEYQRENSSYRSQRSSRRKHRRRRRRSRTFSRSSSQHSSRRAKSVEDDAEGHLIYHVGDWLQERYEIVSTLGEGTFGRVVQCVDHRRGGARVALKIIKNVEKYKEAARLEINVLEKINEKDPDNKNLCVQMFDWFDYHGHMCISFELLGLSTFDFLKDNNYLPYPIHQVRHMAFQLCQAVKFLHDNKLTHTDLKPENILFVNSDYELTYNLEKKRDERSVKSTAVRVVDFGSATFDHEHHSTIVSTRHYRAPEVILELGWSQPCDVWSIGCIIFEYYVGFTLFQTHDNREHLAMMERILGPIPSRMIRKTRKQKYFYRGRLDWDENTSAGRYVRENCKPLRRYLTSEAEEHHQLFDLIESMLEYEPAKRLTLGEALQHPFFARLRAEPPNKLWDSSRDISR

Sample 1 — read-out: enzyme activity; action: inhibitor; tested at: 0.5 µM; relative to: control
Target: Dual specificity tyrosine-phosphorylation-regulated kinase 2 (DYRK2, Homo sapiens, UniProt Q92630)
UniProt Q92630, sequence (whole entry, looked up): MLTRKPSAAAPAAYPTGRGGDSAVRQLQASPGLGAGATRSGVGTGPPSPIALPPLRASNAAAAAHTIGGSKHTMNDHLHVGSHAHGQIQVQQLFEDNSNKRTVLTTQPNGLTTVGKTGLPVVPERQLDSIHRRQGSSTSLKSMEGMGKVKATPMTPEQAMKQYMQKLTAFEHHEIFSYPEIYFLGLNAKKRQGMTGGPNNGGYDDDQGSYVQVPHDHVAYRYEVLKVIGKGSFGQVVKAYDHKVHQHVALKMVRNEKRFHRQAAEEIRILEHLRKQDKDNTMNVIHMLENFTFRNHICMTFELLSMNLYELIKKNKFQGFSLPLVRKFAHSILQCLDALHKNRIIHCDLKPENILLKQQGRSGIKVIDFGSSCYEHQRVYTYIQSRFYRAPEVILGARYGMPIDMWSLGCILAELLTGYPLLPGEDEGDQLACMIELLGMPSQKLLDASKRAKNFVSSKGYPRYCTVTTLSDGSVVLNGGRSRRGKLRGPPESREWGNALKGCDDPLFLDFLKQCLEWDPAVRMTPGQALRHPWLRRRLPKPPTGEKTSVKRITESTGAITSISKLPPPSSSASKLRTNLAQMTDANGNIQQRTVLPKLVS
Structure (SMILES)	remaining activity [%]
NC(=O)c1ccc(N(C(N)=O)c2c(F)cccc2F)nc1-c1ccc(F)cc1F	102
Nc1nc(Nc2ccc(S(N)(=O)=O)cc2)nn1C(=O)c1c(F)cccc1F	112
N#CC(=C(N)Sc1ccc(N)cc1)c1ccccc1C(F)(F)F	96.6
O=C1NC(=O)C(c2c[nH]c3ccccc23)=C1c1c[nH]c2ccccc12	97.7
Cc1cc(Nc2nc(-c3ccccc3)nc3ccccc23)n[nH]1	84
COc1cc(Nc2c(C#N)cnc3cc(OCCCN4CCN(C)CC4)c(OC)cc23)c(Cl)cc1Cl	104
Nc1ncnc2c1cnn2-c1ccccc1	95.6
Cc1cncc2cccc(S(=O)(=O)N3CCCN(C(=O)CN)C[C@@H]3C)c12	101
Fc1ccc(-c2nc3n(c2-c2ccncc2)CCS3)cc1	101
O=C1Cc2c([nH]c3ccc([N+](=O)[O-])cc23)-c2ccccc2N1	72
CCCC(=O)Oc1ccc2[nH]c(C(=O)c3cc4ccccc4[nH]3)cc2c1	91.8
CC(=O)c1ccc(N2CCOCC2)cc1O	101
O=S(=O)(NCCNC/C=C/c1ccc(Br)cc1)c1cccc2cnccc12	95.2
CSc1nc(-c2ccnc(N[C@@H](C)c3ccccc3)c2)c(-c2ccc(F)cc2)[nH]1 (racemic)	96.1
COc1ccc(S(=O)(=O)N(CCO)c2ccccc2CN(C)CC=Cc2ccc(Cl)cc2)cc1	87.5
CC[n+]1c(/C=C/N(C)c2ccccc2)n(-c2ccccc2)c2ccc(-c3nc4ccccc4s3)cc21	105
Nc1nccc(-c2c(-c3ccc(F)cc3)ncn2C2CCNCC2)n1	95.9
CC#CC(=O)Nc1cc2c(Nc3ccc(F)c(Cl)c3)ncnc2cn1	91.3
CCc1[nH]c(-c2ccc(OC)cc2)nc1-c1ccncc1	85.8
Oc1ccc(Nc2nc(-c3ccc(Cl)cc3)cs2)cc1	91.2
CC(C)(C)n1nc(Cc2cccc3ccccc23)c2c(N)ncnc21	98.9
Cc1ccc(NC2=CC(=O)c3sc(C)nc3C2=O)cc1	109

Sample 2 — organism: Sarcocystis neurona; read-out: parasite activity; tested at: 10 µM; time: 96 h
SMILES	activity class
CO[C@H]1/C=C/O[C@@]2(C)Oc3c(C)c(O)c4c(c3C2=O)C2=NC3(CCN(CC(C)C)CC3)NC2=C(NC(=O)/C(C)=C\C=C\[C@H](C)[C@H](O)[C@@H](C)[C@@H](O)[C@@H](C)[C@H](OC(C)=O)[C@@H]1C)C4=O	inactive
COCCCOc1ccnc(C[S+]([O-])c2nc3ccccc3[nH]2)c1C (stereo not shown)	inactive
CCS(=O)(=O)CCn1c([N+](=O)[O-])cnc1C	inactive
O=c1c(O[C@@H]2O[C@H](CO)[C@@H](O)[C@H](O)[C@H]2O)c(-c2ccc(O)c(O)c2)oc2cc(O)cc(O)c12	inactive
CC(C(=O)O)c1ccc(CC2CCCC2=O)cc1 (stereo not shown)	inactive
COc1cc2nc(N3CCN(C(=O)C4CCCO4)CC3)nc(N)c2cc1OC (stereo not shown)	inactive
CCc1oc2ccccc2c1C(=O)c1cc(Br)c(O)c(Br)c1	inactive
CC(C)NCC(O)COc1ccc(COCCOC(C)C)cc1 (stereo not shown)	inactive
CCC(=O)O[C@]1(C(=O)CCl)[C@@H](C)C[C@H]2[C@@H]3CCC4=CC(=O)C=C[C@]4(C)[C@@]3(F)[C@@H](O)C[C@@]21C	inactive
Cn1c(=O)c2[nH]cnc2n(C)c1=O	inactive
CC(C)n1c(/C=C/C(O)CC(O)CC(=O)O)c(-c2ccc(F)cc2)c2ccccc21 (stereo not shown)	inactive
Nc1ccn([C@@H]2O[C@H](CO)[C@@H](O)[C@@H]2O)c(=O)n1	inactive
C#C[C@]1(OC(C)=O)CC[C@H]2[C@@H]3CCC4=CC(=O)CC[C@@H]4[C@H]3CC[C@@]21C	inactive
COc1ccc(-c2oc3c(CC=C(C)C)c(O[C@@H]4O[C@H](CO)[C@@H](O)[C@H](O)[C@H]4O)cc(O)c3c(=O)c2O[C@@H]2O[C@@H](C)[C@H](O)[C@@H](O)[C@H]2O)cc1	inactive
Oc1c(Cl)cc(Cl)c(Cl)c1Cc1c(O)c(Cl)cc(Cl)c1Cl	active
CCCCNC(=O)NS(=O)(=O)c1ccc(C)cc1	inactive
Cc1[nH]c(=O)c(C#N)cc1-c1ccncc1	inactive
CC(Oc1c(Cl)cccc1Cl)C1=NCCN1 (stereo not shown)	inactive
CCN(CC)CC1CCCCN1CC(=O)N1c2ccccc2C(=O)Nc2cccnc21 (stereo not shown)	inactive

Sample 3 — action: degrader; cells: HEK293
SMILES: O=C1CCC(N2Cc3cc(C4CCN(Cc5ccccc5)CC4)ccc3C2=O)C(=O)N1 (stereo not shown)
Target: CRBN/Zinc finger protein Helios (Homo sapiens, UniProt Q96SW2+Q9UKS7)
UniProt Q96SW2, sequence (whole entry, looked up): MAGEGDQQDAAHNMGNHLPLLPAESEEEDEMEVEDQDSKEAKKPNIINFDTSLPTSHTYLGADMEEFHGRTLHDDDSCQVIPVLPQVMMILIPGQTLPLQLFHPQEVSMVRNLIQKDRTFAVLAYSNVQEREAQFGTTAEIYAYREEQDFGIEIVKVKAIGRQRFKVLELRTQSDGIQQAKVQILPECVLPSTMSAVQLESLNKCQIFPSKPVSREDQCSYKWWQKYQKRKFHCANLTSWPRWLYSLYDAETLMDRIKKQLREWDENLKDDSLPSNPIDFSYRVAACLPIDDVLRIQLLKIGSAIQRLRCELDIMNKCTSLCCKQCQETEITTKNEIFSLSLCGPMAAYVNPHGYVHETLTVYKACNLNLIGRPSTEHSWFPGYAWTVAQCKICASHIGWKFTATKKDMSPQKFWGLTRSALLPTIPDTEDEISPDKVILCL
UniProt Q9UKS7, sequence (whole entry, looked up): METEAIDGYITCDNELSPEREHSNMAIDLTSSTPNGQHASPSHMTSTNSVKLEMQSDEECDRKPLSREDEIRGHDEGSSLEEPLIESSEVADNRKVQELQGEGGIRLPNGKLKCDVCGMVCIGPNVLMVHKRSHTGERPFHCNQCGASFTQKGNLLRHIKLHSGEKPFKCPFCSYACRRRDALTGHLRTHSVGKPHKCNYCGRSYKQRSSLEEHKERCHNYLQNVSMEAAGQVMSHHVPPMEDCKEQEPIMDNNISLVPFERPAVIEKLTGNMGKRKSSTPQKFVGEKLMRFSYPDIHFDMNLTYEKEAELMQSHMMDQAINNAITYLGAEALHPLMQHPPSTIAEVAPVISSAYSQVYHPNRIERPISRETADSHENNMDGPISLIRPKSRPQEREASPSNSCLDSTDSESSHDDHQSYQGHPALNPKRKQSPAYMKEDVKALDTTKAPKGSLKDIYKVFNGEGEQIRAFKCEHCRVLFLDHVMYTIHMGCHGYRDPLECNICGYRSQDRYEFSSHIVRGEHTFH
assay	conditions	protein remaining [%]
HiBiT	0.05081 nM, 6 h	101
HiBiT kinetics	0.1524 nM, 1 h	89.4
HiBiT kinetics	4.115 nM, 6 h	40.9
HiBiT kinetics	333.3 nM, 0.5 h	82.9
HiBiT	111.1 nM	41.4
HiBiT kinetics	4.115 nM, 1 h	83.9
HiBiT kinetics	0.05081 nM, 6 h	89.5
HiBiT	0.05081 nM	101
HiBiT kinetics	0.05081 nM, 0.5 h	104
HiBiT kinetics	37.04 nM, 6 h	28.6
HiBiT	1000 nM	36.8
HiBiT kinetics	0.01694 nM, 6 h	101
HiBiT	1000 nM, 6 h	36.8
HiBiT	4.115 nM, 6 h	49.5
HiBiT	333.3 nM	35.8
HiBiT	333.3 nM, 6 h	35.8
HiBiT	0.1524 nM	95.1
HiBiT	4.115 nM	49.5
HiBiT	0.01694 nM	92.6
HiBiT	111.1 nM, 6 h	41.4
HiBiT	12.35 nM, 6 h	40.9

Sample 4 — read-out: cell-free assay; technique: competition with immobilised ligand; tested at: 1 µM
SMILES: CC(=O)c1c(NS(C)(=O)=O)c2cc(-c3ccc(Cl)cc3)c(-c3ccc(Cl)cc3Cl)nc2n(C)c1=O
target	remaining binding [%]
Tyrosine-protein kinase ABL1, phosphorylated (ABL1, Homo sapiens, UniProt P00519)	92
Serine/threonine-protein kinase DCLK2 (DCLK2, Homo sapiens, UniProt Q8N568)	96
Serine/threonine-protein kinase PAK 1 (PAK1, Homo sapiens, UniProt Q13153)	96
Cyclin-dependent kinase 15 (CDK15, Homo sapiens, UniProt Q96Q40)	100
Receptor-type tyrosine-protein kinase FLT3 (FLT3, Homo sapiens, UniProt P36888)	92
Receptor-type tyrosine-protein kinase FLT3 (FLT3, Homo sapiens, UniProt P36888, D835V)	89
Serine/threonine-protein kinase 38-like (STK38L, Homo sapiens, UniProt Q9Y2H1)	76
Serine/threonine-protein kinase Nek4 (NEK4, Homo sapiens, UniProt P51957)	100
Ribosomal protein S6 kinase alpha-3, C-terminal kinase domain (RPS6KA3, Homo sapiens, UniProt P51812)	100
Interferon-induced, double-stranded RNA-activated protein kinase (EIF2AK2, Homo sapiens, UniProt P19525)	100
Dual specificity protein kinase CLK2 (CLK2, Homo sapiens, UniProt P49760)	100
Serine/threonine-protein kinase VRK2 (VRK2, Homo sapiens, UniProt Q86Y07)	100
Tyrosine-protein kinase Tec (TEC, Homo sapiens, UniProt P42680)	100
MAP kinase-activated protein kinase 2 (MAPKAPK2, Homo sapiens, UniProt P49137)	80
Tyrosine-protein kinase ABL1, phosphorylated (ABL1, Homo sapiens, UniProt P00519, Y253F)	94
cGMP-dependent protein kinase 2 (PRKG2, Homo sapiens, UniProt Q13237)	100
Epidermal growth factor receptor (EGFR, Homo sapiens, UniProt P00533, A750P/del747-749)	91
